Results of several laboratories.
Each line is one published result; not all experiments were run side by side. Several values in a cell are separate wells, animals, samples, runs or records. Numbers after ± are the reported error.

Compound | tested on | test | test system | conditions | scale | endpoint | result
CCC(C)(C)C(=O)O[C@H]1C[C@@H](C)C=C2C=C[C@H](C)[C@H](CC[C@@H]3C[C@@H](O)CC(=O)O3)[C@H]21 | BT-12 | cell viability, MTT | – | 10 µM, 72 h | – | inhibition | 86.7%
O=C(C[C@@H](C(F)F)n1ccc(F)n1)N1CCC(O)(Cn2cnc3c(cnn3-c3ccc(F)cc3)c2=O)CC1 | CHP-212 resistant cells (pooled) | annexin V-PI flow cytometry | – | 0.1 µM, 48 h | – | apoptotic cells (early plus late) | 15.2% and 11.3% and 11.6%
Oc1ccc(Nc2nc(-c3ccc(Cl)cc3)cs2)cc1 | HeLa expressing Ub(G76V)-GFP | Ub(G76V)-GFP degradation, cycloheximide chase | – | 12 µM | – | inhibition | 25%
C=CC(=O)N1CCCN(C(=O)c2cc(Sc3cnc(NC(=O)C4CC4)s3)c(C)cc2OC)C[C@H]1C | human primary T cells | – | – | below 10 µM, added: TCR stimulation | – | viability and proliferation | no effect
CCCCc1oc2ccc(NS(C)(=O)=O)cc2c1C(=O)c1ccc(OCCCN(CCCC)CCCC)cc1 | human embryonic stem cell aggregates | mRNA level, microarray, measured: LIX1 | – | 0.5 µM, 120 h | relative to: untreated, up-regulated | fold change | 4 fold
Nc1cc(F)ccc1NC(=O)/C=C/c1cnn(C/C=C/c2ccccc2)c1 | HBL-1 | – | – | 0.5 µM, 120 h | – | viability | 108%
COc1ccc(Oc2ccc(-c3c(C)[nH]c(C)c(Cl)c3=O)cc2)cc1 | Plasmodium yoelii | – | 17XL | 384-well | – | IC50 | 154 ± 56 nM
CC(C)[C@H](C(=O)Nc1ccc(C(=O)NO)cc1)c1ccccc1 | HBL-1 | – | – | 0.1 µM, 120 h | – | viability | 75.1%
COc1ccc2c(NN=Cc3ccc(Cl)cc3)ccnc2c1 | Plasmodium yoelii | – | 17XL | 384-well | – | IC50 | > 20000 nM
NC(=O)c1cccnc1 | HBL-1 | – | – | 0.5 µM, 120 h | – | viability | 111%
C[C@H](Nc1ccc2c(c1)OCCn1cc(N3C(=O)OC[C@H]3C(F)F)nc1-2)C(N)=O | A2058 | resazurin growth rate inhibition | – | 72 h | – | GR50 | > 5 µM
C=Cc1c2[n-]c(c1C)/C=c1\[n-]/c(c(C)c1C=C)=C\c1[n-]c(c(CCC(=O)O)c1C)/C=c1\[n-]c(c(C)c1CCC(=O)O)=C2.[Sn+4] | SH-SY5Y | RNA-seq, measured: VCL mRNA | – | 5 µM, 5 h | relative to: untreated cells | fold change | 1.63
Cn1cc(-c2ccc(-c3cncc(Cl)c3N3CCC4(CCNC4=O)CC3)cc2)cn1 | COLO 205 | gene expression, microarray, measured: PRKCDBP mRNA | – | concentration not given, 6 h | relative to: untreated cells | log2 fold change | -1.67
O=C(NCc1ccccc1)c1c(/N=C/c2c(O)ccc3ccccc23)sc2c1CCCC2 | HBL-1 | – | – | 1 µM, 120 h | – | viability | 99%
CC(Nc1nc(N2CCCC2)nc2ccccc12)c1ccccc1 (stereo not shown) | HeLa Kyoto | RelA nuclear import, high content imaging | – | 0.05 µM, 3 h, added: 1 µM PMA, 60 min | – | cells with nuclear RelA | 79.2% and 89.9%
CC/C(=N\NC(=O)NCc1cccc(O)c1)c1ccc(O)c(C)c1O | SK-OV-3 | microarray, measured: CTGF | 3D culture in gellan gum | 10 µM, 24 h | relative to: DMSO | log ratio of mRNA level | 4.46
CCC/N=C1\S/C(=C\c2ccc(OC[C@H](O)CO)c(Cl)c2)C(=O)N1c1ccccc1C | human primary astrocytes | single-cell RNA-seq, measured: CSF2 mRNA | – | concentration not given, 48 h, added: cytokine stimulation | relative to: cytokine alone | log2 fold change | 0.544
O=C(c1ccccc1)c1ccc(N2CCOCC2)cc1O | HeLa expressing Ub(G76V)-GFP | Ub(G76V)-GFP degradation, cycloheximide chase | – | 12 µM | – | inhibition | -10%
O=C(CC1NCCCC1O)Cn1cnc2cc(Br)c(Cl)cc2c1=O (stereo not shown) | BT-12 | cell viability, MTT | – | 10 µM, 72 h | – | inhibition | 93%
C=C(C)[C@@H](CC=C(C)C)C[C@@]12C[C@@H](CC=C(C)C)C(C)(C)[C@@](CC=C(C)C)(C(=O)C(C(=O)c3ccc(O)c(O)c3)=C1O)C2=O | HBL-1 | – | – | 1 µM, 120 h | – | viability | 56.7%
Nc1ccccc1NC(=O)c1ccc(CNc2ccc(NC3=C(Cl)C(=O)c4cccnc4C3=O)cc2)cc1 | MDA-MB-231 | DNA replication | – | 5 µM, 6 h | – | EdU incorporation | decreased
CCC(=O)N1CCOc2c(cc(-c3ccc(OC)c(OC)c3)cc2OC[C@H]2CCCN(C)C2)C1 | HBL-1 | – | – | 0.5 µM, 120 h | – | viability | 120%
O=C(/C=C/C=C/C=C/C1CCCCC1)NC1=C[C@@](O)(/C=C/C=C/C=C/C(=O)NC2=C(O)CCC2=O)[C@@H]2O[C@@H]2C1=O | RPMI-7951 | cell growth, CellTiter-Glo | – | 78 h | – | GI50 | 17 µM
O=C(c1ccc(C(=O)N2CCC(N3CCCC3)CC2)c(Nc2ccccc2)c1)N1CCC(N2CCCC2)CC1 | HBL-1 | – | – | 0.1 µM, 120 h | – | viability | 117%
CCn1cc(-c2cc(Cn3ccoc3=N)cc3c2CCN([C@@H](C)c2cc(OC)ccn2)C3=O)c(C(F)(F)F)n1 | RS4 | cell growth, inhibitor | – | 120 h | – | EC50 | 31.2 nM
